# Published values from different studies.
# Each line is one published result; not all experiments were run side by side. Numbers after ± are the reported error.
# Organism: influenza A virus
SMILES,assay,test system,conditions,scale,quantity,result
CCOC(=O)c1nc2n(n1)C(C)(O)C([N+](=O)[O-])=NN2 (stereo not shown),,"MDCK, A/Puerto Rico/8/34 (H1N1)",,relative to: CC50 over IC50,selectivity index,1
Cc1cn(C2CC(N(C)C)C(CO)O2)c(=O)[nH]c1=O (stereo not shown),viral cytopathic effect,"MDCK, H1N1",,,EC50,> 0.37 µM
CCOC(=O)c1cnn2c1NN=C([N+](=O)[O-])C2(O)CC (stereo not shown),,"MDCK, A/Puerto Rico/8/34 (H1N1)",,relative to: CC50 over IC50,selectivity index,3
Cc1cc(-c2ccccc2)nc2nc(-c3nc4sc5c(c4c(=O)o3)CCCCC5)nn12,"plaque formation, plaque reduction","MDCK, A/PR/8/34",,,EC50,40 ± 6 µM
CCCCCCCCCC(=O)OCC1OC(n2cc(C)c(=O)[nH]c2=O)CC1N(C)C (stereo not shown),viral cytopathic effect,"MDCK, H1N1",,,EC50,> 0.23 µM
Cc1nc2n(n1)C(C)(O)C([N+](=O)[O-])=NN2 (stereo not shown),,"MDCK, A/Puerto Rico/8/34 (H1N1)",,relative to: CC50 over IC50,selectivity index,3
c1nc(N2CCCCC2)ncc1CNC12CC3CC(CC(C3)C1)C2,plaque reduction,"MDCK ST6Gal I, A/WSN/33 (H1N1)",2 days,,EC50,1.7 ± 0.5 µM
Cc1cc(-c2ccccc2)n2nc(C(=O)Nc3sc4c(c3C(N)=O)CCCCC4)nc2n1,"plaque formation, plaque reduction","MDCK, A/PR/8/34",,,EC50,21 ± 4 µM
CCC1(O)C([N+](=O)[O-])=NNc2nc(C(F)(F)F)nn21 (stereo not shown),,"MDCK, A/Puerto Rico/8/34 (H1N1)",,relative to: CC50 over IC50,selectivity index,1
COc1cc(-c2oc3cc(O[C@@H]4O[C@@H](C)[C@H](O)[C@@H](O)[C@H]4O)cc(O)c3c(=O)c2O[C@@H]2O[C@H](CO[C@@H]3O[C@@H](C)[C@H](O)[C@@H](O)[C@H]3O)[C@@H](O)[C@H](OC(C)=O)[C@H]2O)ccc1O,hemagglutination,virus panel,range over panel,,IC50,27.3 to 152 µM
c1nc(N2CCCCCC2)ncc1CNC12CC3CC(CC(C3)C1)C2,cytopathic effect,"MDCK, A/WSN/33 H1N1",48 h,,EC50,0.7 ± 0.1 µM
COc1cc(-c2oc3cc(O)cc(O)c3c(=O)c2O[C@@H]2O[C@H](CO)[C@@H](O)[C@H](O)[C@H]2OC(=O)c2cc(O)c(O)c(O)c2)ccc1O,hemagglutination,A/Vladivostok/2/09 (H1N1),,,IC50,185 ± 5.5 µM
O=C1/C(=N\NC(=S)NN=Cc2cccs2)c2ccccc2N1Cc1ccccc1,"cytopathic effect, MTS","MDCK, H1N1",,,EC50,> 4 µM
COc1cc(-c2oc3cc(O)cc(O)c3c(=O)c2O[C@@H]2O[C@H](CO)[C@@H](O)[C@H](OC(C)=O)[C@H]2O)ccc1O,hemagglutination,virus panel,range over panel,,IC50,40.8 to 157 µM
CCOC(=O)c1nc2n(n1)C(O)(CC)C([N+](=O)[O-])=NN2 (stereo not shown),,"MDCK, A/Puerto Rico/8/34 (H1N1)",,relative to: CC50 over IC50,selectivity index,1
OC12CC3CC(C1)CC(NCc1cnc(N4CCCCC4)nc1)(C3)C2,"viral replication, plaque reduction",A/California/07/2009 H1N1,,,EC50,4.7 ± 0.8 µM

# Some of these lines once more:
SMILES,assay,test system,conditions,scale,quantity,result
CCOC(=O)c1nc2n(n1)C(C)(O)C([N+](=O)[O-])=NN2 (stereo not shown),,"MDCK, A/Puerto Rico/8/34 (H1N1)",,relative to: CC50 over IC50,selectivity index,1
Cc1cn(C2CC(N(C)C)C(CO)O2)c(=O)[nH]c1=O (stereo not shown),viral cytopathic effect,"MDCK, H1N1",,,EC50,> 0.37 µM
